{"data": "Results from different studies", "note": "A part holds a random share of what one study measured. Positions count from the first letter of the parent shown."}
{"data": "Block 1", "target": "CCNA2, cyclin fold, Cln2 fusion (human)", "method": "yeast growth competition, sequencing", "matrix": "yeast", "notes": "weak parent motif", "relative to": "not given", "direction": "higher = stronger binding", "starting sequence": "SLBP docking peptide (human); ARYKRKLLINDFG"}
{"Variant": "ANYKRKLLINDFG [R2N]", "normalised enrichment score": 1.4}
{"Variant": "YRYKRKLLINDFG [A1Y]", "normalised enrichment score": 1.23}
{"Variant": "ARYKRKGLINDFG [L7G]", "normalised enrichment score": 1.86}
{"Variant": "AFYKRKLLINDFG [R2F]", "normalised enrichment score": 1.17}
{"Variant": "ARYKKKLLINDFG [R5K]", "normalised enrichment score": 0.954}
{"Variant": "HRYKRKLLINDFG [A1H]", "normalised enrichment score": 1.33}
{"Variant": "ARAKRKLLINDFG [Y3A]", "normalised enrichment score": 2.56}
{"Variant": "AIYKRKLLINDFG [R2I]", "normalised enrichment score": 1.34}
{"data": "Block 2", "target": "Interferon regulatory factor 7, full length, phosphomimetic (IRF7, Homo sapiens, UniProt Q92985, residues 1-503, S101K/S471D/S472D/S475D/S476D/S477D/S483D/S484D/S487D)", "method": "protein-binding microarray", "molecule type": "double-stranded DNA, one strand shown", "matrix": "in vitro", "concentration": "250 nM", "notes": "60-bp whole probe", "with": "salmon DNA 0.4 mg/ml", "relative to": "random background probes", "direction": "higher = stronger binding", "constant ends, left off below": "GCCTAGCAC … GTCTTGATTCGCTTGACGCTGCTG", "chain of UniProt Q92985 (whole entry, unmodified, looked up)": "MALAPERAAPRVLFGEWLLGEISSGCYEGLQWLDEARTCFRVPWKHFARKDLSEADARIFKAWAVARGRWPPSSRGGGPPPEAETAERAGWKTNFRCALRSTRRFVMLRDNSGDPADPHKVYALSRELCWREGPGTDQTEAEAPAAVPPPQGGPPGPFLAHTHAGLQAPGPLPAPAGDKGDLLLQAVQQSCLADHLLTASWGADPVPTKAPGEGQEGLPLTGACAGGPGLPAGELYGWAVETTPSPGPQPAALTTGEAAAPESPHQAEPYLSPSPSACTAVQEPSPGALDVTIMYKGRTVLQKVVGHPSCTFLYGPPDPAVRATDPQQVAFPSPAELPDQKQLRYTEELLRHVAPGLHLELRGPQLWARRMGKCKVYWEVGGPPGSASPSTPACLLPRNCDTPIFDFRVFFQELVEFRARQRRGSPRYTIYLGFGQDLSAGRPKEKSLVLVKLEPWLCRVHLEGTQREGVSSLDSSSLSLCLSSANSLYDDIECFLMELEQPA"}
{"Strand": "GACGGTTTCCTGTCCCTGACGTGCTAG", "log fluorescence [z-score]": 1.69}
{"Strand": "GACGGACTGGACACAGGGGACGTGCTA", "log fluorescence [z-score]": -0.808}
{"Strand": "GACGGTTTCGGACCGGGGACGTGCTAG", "log fluorescence [z-score]": 2.37}
{"Strand": "TTAGATTTCGGGTCTCGATTAGTGCTA", "log fluorescence [z-score]": 2.54}
{"Strand": "GACGGTCTCGGTATCGGGACGTGCTAG", "log fluorescence [z-score]": 1.54}
{"Strand": "GACGGTATCCTTATCCCGACGTGCTAG", "log fluorescence [z-score]": 0.301}
{"Strand": "TTACTTCCCAATAATCTTTTCGTGCTA", "log fluorescence [z-score]": 2.13}
{"Strand": "GATGGTTTCGGGTATCGGGACGTGCTA", "log fluorescence [z-score]": 7.98}
{"Strand": "TCACTTTTCGCTTTCTTACTGTGCTAG", "log fluorescence [z-score]": 4.97}
{"Strand": "TTGGATCTCAGACTGGATTAGTGCTAG", "log fluorescence [z-score]": -0.0848}
{"data": "Block 3", "target": "Histone acetyltransferase KAT6A, both winged helices, GST fusion (KAT6A, Homo sapiens, UniProt Q92794, residues 1-181)", "method": "protein binding microarray", "molecule type": "double-stranded DNA, one strand shown", "matrix": "in vitro", "concentration": "not given", "notes": "8-mer, flanks averaged, mean of 2 arrays, mostly near background", "relative to": "not given", "direction": "higher = stronger binding", "Construct (chain)": "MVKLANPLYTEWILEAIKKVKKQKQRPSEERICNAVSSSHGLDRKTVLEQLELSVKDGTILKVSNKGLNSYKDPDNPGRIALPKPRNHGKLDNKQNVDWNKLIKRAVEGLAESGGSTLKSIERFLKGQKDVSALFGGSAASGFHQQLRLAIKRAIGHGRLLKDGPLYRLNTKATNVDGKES"}
{"Strand": "GGACCGTA", "E-score": 0.189}
{"Strand": "AATCGATG", "E-score": -0.151}
{"Strand": "ATCCCTCG", "E-score": -0.0537}
{"Strand": "AAGACGCA", "E-score": 0.0191}
{"Strand": "CTACAAAC", "E-score": -0.0941}
{"Strand": "ACTTTGCA", "E-score": -0.233}
{"Strand": "TAGTAGAA", "E-score": -0.0645}
{"data": "Single results of other studies"}
{"Substance": "PhoQ, residues 284 288 289 292 302 303 AGGCYF", "target": "PhoP, residues 12 14 15 18 19 GHCSL (Escherichia coli, UniProt P23836)", "assay": "Sort-seq, refers to: YFP reporter", "system": "E. coli", "conditions": "PhoQ-PhoP variant library, with: 10 µM Mg2+", "how to read": "relative to: high Mg2+ state, higher = stronger signaling", "measurement": "fold induction", "result": 14.7}
{"note": "Some of these lines once more (block 1):"}
{"Variant": "YRYKRKLLINDFG [A1Y]", "normalised enrichment score": 1.23}
{"Variant": "ARYKRKGLINDFG [L7G]", "normalised enrichment score": 1.86}
{"Variant": "AFYKRKLLINDFG [R2F]", "normalised enrichment score": 1.17}
{"Variant": "ARYKKKLLINDFG [R5K]", "normalised enrichment score": 0.954}
